# Assay results pooled from the literature.
# Compare with care: the assays were run in different laboratories. “And” joins repeats or separate records; there may be more than shown. Numbers after ± are the reported error.
Compound,organism,assay,system,conditions,scale,measurement,result
Cc1cc(OC(C)C)ccc1C(=O)C(C)(C)NC(=O)c1sccc1C,Mycosphaerella melonis,mycelial growth,PSA medium,"20 °C, suspension concentrate 400 g/L",,EC50,0.65 µg/mL
CC(C)c1ccc(/C=C2\N=C(SCc3ccccc3)N(c3ccccc3)C2=O)cc1,Bacillus cereus,,ATCC 14579,concentration not given,,inhibition zone diameter,0 ± 0.13 mm
COc1ccc(NS(=O)(=O)c2ccc(N)cc2)cc1OC,Leishmania infantum,intracellular amastigote growth,U-937 macrophages and HeLa,,relative to: IC50 HeLa over IC50 amastigotes,selectivity index,> 1.5
O=S(=O)(c1ccc(Cl)cc1)N1CCN(c2ccc(C(F)(F)F)c(NCc3ccncc3)c2)CC1,Aedes aegypti,,,"100 µM, 48 h, 1 instar larvae",,larval mortality,> 80%
COC[C@H]1O[C@@H]2O[C@H]3[C@H](OC)[C@@H](OC)[C@@H](O[C@H]4[C@H](OC)[C@@H](OC)[C@@H](O[C@H]5[C@H](OC)[C@@H](OC)[C@@H](O[C@H]6[C@H](OC)[C@@H](OC)[C@@H](O[C@H]7[C@H](OC)[C@@H](OC)[C@@H](O[C@H]8[C@H](OC)[C@@H](OC)[C@@H](O[C@H]1[C@H](OC)[C@H]2OC)O[C@@H]8COC)O[C@@H]7COC)O[C@@H]6COC)O[C@@H]5COC)O[C@@H]4COC)O[C@@H]3COC,Escherichia coli,"LuxR reporter, agonist",DH5α sensor strain,100 µM,,bioluminescence,793 ± 25 RLU
COc1cc(-c2c(-c3ccccn3)nc3n2CCC3)ccc1C#N,Leishmania infantum,,"macrophages, MHOM/MA(BE)/67/ITMAP263, amastigote",,,IC50,27.1 µM and 8 µM
CCCCCCCNC1=C(n2cncn2)C(=O)c2ccccc2C1=O,Alternaria alternata,,ITCC 4522,10 µg/mL,,zone of inhibition,9 mm
Fc1cccc(N/N=C/c2ccc(-c3ccc(/C=N/Nc4cccc(F)c4F)cc3)cc2)c1F,Candida and Aspergillus,,,"concentration not given, strain panel",,antifungal activity,inactive
Cc1cc(Nc2ccc(S(F)(F)(F)(F)F)cc2)n2nc(C(C)(F)F)nc2n1,Plasmodium falciparum,microscopy,human malaria patients,"400 mg, median",,parasite clearance half-life,5 h
Fc1cccc(N/N=C/c2ccc(-c3cccc(/C=N/Nc4cccc(F)c4F)c3)cc2)c1F,Candida and Aspergillus,,,"concentration not given, strain panel",,antifungal activity,inactive
CC(C)(C)[Si](C)(C)OCCCN(c1ccc(F)cc1)c1c(-c2ccccn2)nc2ccccn12,Leishmania infantum,,"macrophages, MHOM/MA(BE)/67/ITMAP263, amastigote",,,IC50,1.69 µM and 0.32 µM
O=C(O)c1cccc(Cn2ccc3cc(-c4ccc5ccn(Cc6cccc(C(=O)O)c6)c5c4)ccc32)c1,human immunodeficiency virus 1,"viral replication, MAGI cell","MAGI cells, Ba-L",CCR5-tropic,,EC50,18.2 µM
COc1ccc(/C=C2\NC(=S)N(c3ccccc3)C2=O)c(OC)c1,Bacillus cereus,,ATCC 14579,concentration not given,,inhibition zone diameter,14 ± 0.15 mm
COc1ccc(S(=O)(=O)Nc2cc(OC)c(NC(=O)CCCl)cc2OC)cc1,Leishmania infantum,intracellular amastigote growth,U-937 macrophages and HeLa,,relative to: IC50 HeLa over IC50 amastigotes,selectivity index,0.27
O=C1C(Cl)=C(n2cncn2)C(=O)c2ccccc21,Bacillus cereus,,MTCC 430,10 µg/mL,,zone of inhibition,14 mm
Nc1nc(-c2ccccc2)nc2[nH]nc(Nc3ccc(C(F)(F)F)cc3)c12,coxsackievirus B3,,"31-1-93, NMRI mice, CVB3 chronic myocarditis","oral, 100 mg/kg twice daily, day 3, dosed days 0 to 6, score scale 0 to 7",direction not given,clinical score,0
COc1ccn2c(Nc3ccccc3F)c(-c3ccncn3)nc2c1,Leishmania infantum,,"macrophages, MHOM/MA(BE)/67/ITMAP263, amastigote",,,IC50,9.51 µM and 8.64 µM
CO[C@H]1/C=C/O[C@@]2(C)Oc3c(C)c(O)c4c(c3C2=O)C2=NC3(CCN(CC(C)C)CC3)NC2=C(NC(=O)/C(C)=C\C=C\[C@H](C)[C@H](O)[C@@H](C)[C@@H](O)[C@@H](C)[C@H](OC(C)=O)[C@@H]1C)C4=O,Mycobacteroides abscessus,bacterial growth,subsp. massiliense clinical isolate,slow grower,,IC50,0.606 µM
COC(=O)[C@@H](CCSC)NCc1cc2ccccc2nc1SC,Pseudomonas aeruginosa,,,"2 µg/mL, added: pentamidine 50 µM",relative to: control,growth,100%
O=C(/C=C/c1ccc(O)c(O)c1)O[C@@H]1C[C@](O)(C(=O)O)C[C@@H](O)[C@H]1O,human immunodeficiency virus 1,viral replication,"TZM-bl cells, BaL (CCR5-tropic)",48 h,,IC50,> 100 µM
N=C(N)c1ccc(OCc2cccc(COc3ccc(C(=N)N)cc3)c2)cc1,Escherichia coli,,ATCC 25922,"concentration not given, added: rifampicin",,MIC in combination,6.25 µg/mL
CC(C)CCN(c1ccc(F)cc1)c1c(-c2ccccn2)nc2ccccn12,Leishmania infantum,,"macrophages, MHOM/MA(BE)/67/ITMAP263, amastigote",,,IC50,0.59 µM and 0.54 µM
COc1cc(C#CC(=O)c2ccccc2)ccc1O,Pseudomonas aeruginosa,,PA14,"10 µM, 24 h, static conditions",relative to: DMSO,biofilm formation,46%
CC(C)c1ccc(/C=C2\N=C(SCC(=O)c3ccccc3)N(c3ccccc3)C2=O)cc1,Bacillus cereus,,ATCC 14579,concentration not given,,inhibition zone diameter,14 ± 0.05 mm
COc1cccn2c(Nc3ccc(F)cc3)c(-c3ccccn3)nc12,Leishmania infantum,,"macrophages, MHOM/MA(BE)/67/ITMAP263, amastigote",,,IC50,8.3 µM and 8.06 µM
O=c1oc2c(O)c(O)cc3c(=O)oc4c(O)c(O)cc1c4c23,Streptococcus gordonii,,ATCC 51656,MIC,relative to: control,cell surface hydrophobicity,decreased
N#Cc1ccc(N2CCN(S(=O)(=O)c3ccc(F)cc3)CC2)cc1NCc1ccncc1,Aedes aegypti,,,"100 µM, 24 h, first instar larvae",,larval mortality,~42%
FC(F)(F)c1ccc(-c2c(-c3ccccn3)nc3n2CCC3)cc1,Leishmania infantum,,"macrophages, MHOM/MA(BE)/67/ITMAP263, amastigote",,,IC50,1.81 µM and 1.9 µM
CC(C)n1ncc2c(C(=O)NCC3(C)CNC3)cc(C3CC3)nc21,coxsackievirus A6,CPE,RD,15 µM,,cell protection,100%
CN[C@H](CC(C)C)C(=O)N[C@H]1C(=O)N[C@@H](CC(N)=O)C(=O)N[C@H]2C(=O)N[C@H]3C(=O)N[C@H](C(=O)N[C@H](C(=O)O)c4cc(O)cc(O)c4-c4cc3ccc4O)[C@H](O)c3ccc(c(Cl)c3)Oc3cc2cc(c3O[C@@H]2O[C@H](CO)[C@@H](O)[C@H](O)[C@H]2O[C@H]2C[C@](C)(N)[C@H](O)[C@H](C)O2)Oc2ccc(cc2Cl)[C@H]1O,Staphylococcus aureus,,"MRSA, 10 isolates",pH 7.0,,MIC50,1 µg/mL
O=c1c(O)c(-c2ccc(O)cc2)oc2cc(O[C@@H]3O[C@H](CO)[C@@H](O)[C@H](O)[C@H]3O)cc(O)c12,Streptococcus gordonii,,ATCC 51656,,,MBC,200 µg/mL
CC(=O)NC[C@H]1CN(c2ccc(N3CCOCC3)c(F)c2)C(=O)O1,Staphylococcus epidermidis,broth microdilution,methicillin-resistant isolates,,,MIC90,4 µg/mL
CN(c1ccc(F)cc1)c1c(-c2cccc(F)n2)nc2ccccn12,Leishmania infantum,,"macrophages, MHOM/MA(BE)/67/ITMAP263, amastigote",,,IC50,10.8 µM and 9.19 µM
Cc1ccc(-c2nc3ccccc3s2)cc1NC(=O)c1ccc(F)cc1F,Leishmania mexicana,amastigote growth,J774.A1 macrophages,,,EC50,> 10 µM
O=c1c(O[C@@H]2O[C@H](CO)[C@H](O)[C@H](O)[C@H]2O)c(-c2ccc(O)c(O)c2)oc2cc(O)cc(O)c12,human immunodeficiency virus 1,viral replication,"TZM-bl cells, BaL (CCR5-tropic)",48 h,,IC50,> 100 µM
COc1cc(C=O)ccc1OC1=C(Cl)C(=O)c2ccccc2C1=O,Bacillus cereus,,MTCC 430,10 µg/mL,,zone of inhibition,19 mm
CC(=O)ON=C1C=CC(=C(C#N)c2ccccc2)C=C1,Candida parapsilosis,broth dilution,ATCC 22099,"48 h, 37 °C",,MFC,16 µg/mL
CCCCCCCCCC(=O)N[C@@H](Cc1c[nH]c2ccccc12)C(=O)N[C@H](CC(N)=O)C(=O)N[C@@H](CC(=O)O)C(=O)N[C@@H]1C(=O)NCC(=O)N[C@@H](CCCN)C(=O)N[C@@H](CC(=O)O)C(=O)N[C@H](C)C(=O)N[C@@H](CC(=O)O)C(=O)NCC(=O)N[C@H](CO)C(=O)N[C@@H]([C@H](C)CC(=O)O)C(=O)N[C@@H](CC(=O)c2ccccc2N)C(=O)O[C@@H]1C,Enterococcus,broth microdilution,"VRE 155, Mueller-Hinton broth, Mg2+ 10 mg/L","16 h, added: Ca2+ 0 mM",,MIC,> 128 µg/mL
CCCCN(Cc1c(-c2ccccc2)nc2ccc(C)cn12)c1cccc(C(F)(F)F)c1,Leishmania infantum,,MHOM/MA(BE)/67/ITMAP263,120 h,relative to: CC50 macrophages over EC50 amastigotes,selectivity index,3.3
Nc1ncnc2c1ncn2[C@@H]1O[C@H](CSCc2ccc3ccccc3c2)[C@@H](O)[C@H]1O,Murine coronavirus,"viral replication, outcome no inhibition",A59,200 µM,,inhibition,no inhibition
O=C1C(Cl)=C(n2ccnc2)C(=O)c2ccccc21,Bacillus cereus,,MTCC 430,10 µg/mL,,zone of inhibition,8 mm
COc1cc2nnn(S(=O)(=O)c3ccc(N(C)C)cc3)c2cc1OC,Leishmania infantum,intracellular amastigote growth,U-937 macrophages and HeLa,,relative to: IC50 HeLa over IC50 amastigotes,selectivity index,1.6
O=C(O)c1ccc(O)c(O)c1,human immunodeficiency virus 1,viral replication,"TZM-bl cells, NL4-3 (CXCR4-tropic)",48 h,,IC50,> 100 µM
CC(=O)Oc1ccccc1C(=O)Nc1ncc([N+](=O)[O-])s1,Cryptosporidium parvum,egress and reinvasion,HCT-8,"2 x EC90, 19.5 h, compound added 6 h postinfection",relative to: vacuoles at 6 h,parasite vacuole ratio,1.01 and 2.61 and 1.11
